Published values of several laboratories.
Parts stem from different laboratories: compare values within a part only. Several values in a cell are separate wells, animals, samples, runs or records.

Sample 1
Organism: Sarcocystis neurona
Effect on: parasite growth
Tested at: 10 µM
Time: 96 h
Setting: second screen
Baseline: untreated
Quantity: log2 fold change
CCOC(=O)O[C@]1(C(=O)OCCl)CC[C@H]2[C@@H]3CCC4=CC(=O)C=C[C@]4(C)[C@H]3[C@@H](O)C[C@@]21C: 0.35
CN(C)CCCN1c2ccccc2CCc2ccc(Cl)cc21: 0.46
Nc1nc(N)nc(-c2cc(Cl)ccc2Cl)n1: -0.27
Nc1nc(F)nc2c1ncn2[C@@H]1O[C@H](CO)[C@@H](O)[C@@H]1O: 0.26
NC12CC3CC(CC(C3)C1)C2: 0.27
Nc1ccc(O)c(C(=O)O)c1: 0.3
CC(=O)O[C@]1(C(C)=O)CC[C@H]2[C@@H]3C=C(C)C4=CC(=O)CC[C@]4(C)[C@H]3CC[C@@]21C: 0.11
COc1cc(C)nc(-n2nc(C)cc2OC)n1: 0.09
Cc1cccc(C)c1NC(=O)C1CCCCN1C (centres unmarked): 0.14
CCCNC(=O)NS(=O)(=O)c1ccc(Cl)cc1: 0.32
CC(=O)OCC(=O)[C@@]1(O)CC[C@H]2[C@@H]3C[C@H](C)C4=CC(=O)C=C[C@]4(C)[C@H]3[C@@H](O)C[C@@]21C: 0.27
CCCc1nc(C(C)(C)O)c(C(=O)OCc2oc(=O)oc2C)n1Cc1ccc(-c2ccccc2-c2nnn[nH]2)cc1: -0.0181
CNS(=O)(=O)Cc1ccc2[nH]cc(CCN(C)C)c2c1: 0.32
CC(=O)OCC(=O)[C@@]12OC(C)(C)O[C@@H]1C[C@H]1[C@@H]3C[C@H](F)C4=CC(=O)C=C[C@]4(C)[C@@]3(F)[C@@H](O)C[C@@]12C: 0.65

Sample 2
Cell line: normal adjacent epithelium patient-derived organoids
Technique: CellTiter-Glo
Tested at: 0.1 µM
Setting: mean of five organoid lines
Baseline: DMSO
Quantity: viability
O=C(N[C@H]1CCCCC/C=C\C2C[C@@]2(C(=O)O)NC(=O)[C@@H]2C[C@@H](Oc3ccncc3)CN2C1=O)OC1CCCC1 (some centres unmarked): 110%
Cc1cc(Nc2nccc(C)n2)cc(-c2cnc([C@@]3(O)CC[C@H](C(=O)O)C(C)(C)C3)s2)c1: 108%
CCCOc1ccc([C@@H]2[C@@H](C(=O)O)[C@H](c3ccc4c(c3)OCO4)CN2CC(=O)Nc2c(CC)cccc2CC)cc1: 114%
COc1cccc(CNC(=O)c2nc3scc(COCc4ccc(C(=O)O)cc4)c3c(=O)[nH]2)c1: 109%
CS(=O)(=O)NCC[C@H](NC(=O)c1cncc2c1cnn2-c1ccc(F)cc1)c1ccnc(S(C)(=O)=O)c1: 127%
O=C(NCc1ncc(C(F)(F)F)cc1Cl)c1ccc2c(c1)C1(CCS(=O)(=O)CC1)[C@H](C1CC1)N2S(=O)(=O)c1ccc(F)cc1: 105%
Cc1cc(C)c(-n2ccn3nc(-c4cccnc4)cc23)cc1NC(=O)c1cc(C#N)cc(S(F)(F)(F)(F)F)c1: 103%
CN(C)C(=O)Cn1cc(-c2nc([C@@](C)(c3ccc(-c4cnc(N)nc4)cc3)C3CC3)no2)cn1: 101%
O=C(O)[C@H]1[C@H](Cn2nnc3ccccc3c2=O)CC[C@@H]1C(=O)c1ccc(OCCC2CCOCC2)cc1: 120%
Cc1nc(Cc2cccc(C(F)(F)F)c2)sc1-c1ccc(C(N)=O)nc1: 102%
Cc1ccc(-c2cnc([C@@]3(O)CC[C@H](C(=O)O)C(C)(C)C3)s2)cc1Nc1cccc(C(F)(F)F)n1: 103%
CCS(=O)(=O)c1cc2cc(C[C@@](O)(CC(C)(C)c3ccc(F)cc3C(N)=O)C(F)(F)F)[nH]c2cn1: 113%
Cc1c[nH]c2nccc(Oc3c(F)cc(Nc4cc(Cl)nc(N)n4)cc3F)c12: 120%
CCCCN(CCCC)C(=O)CN1C[C@H](c2cc(OC)c3c(c2)OCO3)[C@@H](C(=O)O)[C@@H]1CC(C)(C)CCC: 108%
O=C(Nc1ccc(Oc2ccc(F)cc2)cc1)N1CCc2ncccc2[C@H]1c1ccc(F)cc1: 111%
CN1C(=O)[C@@H](N2CCc3c(nn(Cc4ccccc4)c3Br)C2=O)COc2ccccc21: 118%
COc1ccc2cc(OCC3(C(=O)O)CN(C(=O)c4ccc(F)cc4)C3)ccc2c1: 116%
N#Cc1ccc(Nc2ccc3[nH]c(=O)[nH]c3c2)c(Cl)c1: 108%

Sample 3
Technique: logD(dd/w) and ALogP
Setting: MRN method
Quantity: lipophilic permeability efficiency
CCC[C@@H]1C(=O)N(C)[C@@H](CC2CCCCC2)C(=O)N[C@@H](CC2CCCCC2)C(=O)N2CCC[C@@H]2C(=O)N(C)[C@@H](Cc2ccc(O)cc2)C(=O)N[C@@H](CC(C)C)C(=O)N1C: 1.06
CC(C)C[C@@H]1NC(=O)[C@H](Cc2ccccc2)N(C)C(=O)[C@H]2CCCN2C(=O)[C@H](CC(C)C)NC(=O)[C@H](C)N(C)C(=O)[C@@H](C)N(C)C1=O: 3.68
CC(C)C[C@@H]1NC(=O)[C@H](Cc2ccc(O)cc2)N(C)C(=O)[C@H]2CCCN2C(=O)[C@H](CC(C)C)NC(=O)[C@H](CC(C)C)N(C)C(=O)[C@@H](C)N(C)C1=O: 1.68
CC[C@H]1NC(=O)[C@H](CC(C)C)NC(=O)[C@H](Cc2ccccc2)NC(=O)[C@H]2CCCN2C(=O)[C@H](CC2CCCCC2)NC(=O)[C@H](CC2CCCCC2)NC1=O: 1.75
CC[C@H]1NC(=O)[C@H](CC(C)C)NC(=O)[C@H](Cc2ccccc2)NC(=O)[C@H]2CCCN2C(=O)[C@H](CC(C)C)NC(=O)[C@H](C)NC1=O: 1.72
CC(C)C[C@@H]1NC(=O)[C@H](Cc2ccc(O)cc2)N(C)C(=O)[C@H]2CCCN2C(=O)[C@H](CC(C)C)NC(=O)[C@H](C)N(C)C(=O)[C@@H](C)N(C)C1=O: 1.53
CC[C@@H]1C(=O)N(C)[C@@H](CC2CCCCC2)C(=O)N[C@@H](CC2CCCCC2)C(=O)N2CCC[C@@H]2C(=O)N(C)[C@@H](Cc2ccc(O)cc2)C(=O)N[C@@H](CC(C)C)C(=O)N1C: 1.32
CC(C)C[C@@H]1NC(=O)[C@H](Cc2ccc(O)cc2)NC(=O)[C@H]2CCCN2C(=O)[C@H](CC(C)C)NC(=O)[C@H](CC2CCCCC2)NC(=O)[C@@H](CC(C)C)NC1=O: -0.188
CC[C@@H]1NC(=O)[C@@H](CC)NC(=O)[C@H](CC(C)C)NC(=O)[C@H](Cc2ccccc2)NC(=O)[C@H]2CCCN2C(=O)[C@H](CC(C)C)NC1=O: 1.7
CC(C)C[C@@H]1NC(=O)[C@H](Cc2ccccc2)N(C)C(=O)[C@H]2CCCN2C(=O)[C@H](CC(C)C)NC(=O)[C@H](CC(C)C)N(C)C(=O)[C@@H](C)N(C)C1=O: 3.7
CC(C)C[C@@H]1NC(=O)[C@H](C)N(C)C(=O)[C@H]2CCCN2C(=O)[C@H](CC(C)C)NC(=O)[C@H](CC(C)C)N(C)C(=O)[C@@H](CC(C)C)N(C)C1=O: 3.79

Mixed results
CC(=O)N[C@@H](Cc1c[nH]c2ccccc12)C(=O)N[C@@H](CCC(=O)C=[N+]=[N-])C(=O)OC(C)C — pyruvate level (UPLC-MS/MS; EL4 tumor, C57BL/6 CES1-/- mice, tumor; subcutaneous, 0.3 mg/kg DON equivalent daily, 5 days; higher = more metabolite): 1.19e+07 a.u. and 6.01e+06 a.u. and 1.07e+07 a.u. and 6.85e+06 a.u. and 1.43e+07 a.u. and 1.3e+07 a.u.

For quick reference, copied from above (sample 1):
CCCc1nc(C(C)(C)O)c(C(=O)OCc2oc(=O)oc2C)n1Cc1ccc(-c2ccccc2-c2nnn[nH]2)cc1: -0.0181
CCCNC(=O)NS(=O)(=O)c1ccc(Cl)cc1: 0.32
NC12CC3CC(CC(C3)C1)C2: 0.27
Nc1nc(N)nc(-c2cc(Cl)ccc2Cl)n1: -0.27
Nc1nc(F)nc2c1ncn2[C@@H]1O[C@H](CO)[C@@H](O)[C@@H]1O: 0.26
CC(=O)O[C@]1(C(C)=O)CC[C@H]2[C@@H]3C=C(C)C4=CC(=O)CC[C@]4(C)[C@H]3CC[C@@]21C: 0.11
